Results pooled from the literature.
Every numbered part comes from another study and shows a few of its results, in no order. Substitutions count along the parent as printed.

Block 1
Target: Interferon regulatory factor 3, full length, phosphomimetic (IRF3, Homo sapiens, UniProt Q14653, residues 1-427, S386D/S396D/S398D/S402D/T404D/S405D)
Method: protein-binding microarray
Form: double-stranded DNA, one strand shown
Matrix: in vitro
Tested at: 2540 nM top
Setting: 60-bp whole probe
With: salmon DNA 0.4 mg/ml
Relative to: random background probes
Direction: higher = stronger binding
All sequences stand within: GCCTAGCAC … GTCTTGATTCGCTTGACGCTGCTG
Construct (chain): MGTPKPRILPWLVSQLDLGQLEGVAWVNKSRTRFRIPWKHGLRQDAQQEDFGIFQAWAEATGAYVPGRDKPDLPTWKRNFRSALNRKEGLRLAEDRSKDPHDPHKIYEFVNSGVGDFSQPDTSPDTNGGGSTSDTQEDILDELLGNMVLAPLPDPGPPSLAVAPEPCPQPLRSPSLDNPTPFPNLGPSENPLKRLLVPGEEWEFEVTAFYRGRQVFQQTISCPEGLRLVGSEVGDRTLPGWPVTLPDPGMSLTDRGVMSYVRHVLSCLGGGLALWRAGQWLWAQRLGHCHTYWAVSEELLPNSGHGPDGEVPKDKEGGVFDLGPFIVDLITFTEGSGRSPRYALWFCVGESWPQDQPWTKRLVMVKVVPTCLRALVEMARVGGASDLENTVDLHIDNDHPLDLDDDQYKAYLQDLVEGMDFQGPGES
Oligonucleotide	fitted relative affinity
TTAGGTATCGGGACTGGGTTGGTGCTA	1.04 z-score
TGAGATATCAGTATCGATTAGTGCTAG	1.79 z-score
GACCGTATCGGACTGGGGACGTGCTAG	1.98 z-score
AGTATGTTCACTATTTAAGAGTGCTAG	0.877 z-score
TTAGGACTGGGGAATGGGTTAGTGCTA	-0.936 z-score
GACGGTATCAGGTTTCGGGACGTGCTA	3.5 z-score
TCAGGTTTCACTTTAAAACTGTGCTAG	5.84 z-score
TATAGGTTGTTTCTAATATTGTGCTAG	1.04 z-score

Block 2
Target: CCNE2, cyclin fold, Cln2 fusion (human)
Method: yeast growth competition, sequencing
Matrix: yeast
Setting: strong parent motif
Relative to: not given
Direction: higher = stronger binding
Starting sequence: CDKN1A docking peptide (human); SKACRRLFGPVDS
Variant	normalised enrichment score
SKACRRKFGPVDS [L7K]	0.489
SKACRRLSGPVDS [F8S]	0.254
SKACRRLFPPVDS [G9P]	4.11
SKDCRRLFGPVDS [A3D]	0.115
SKTCRRLFGPVDS [A3T]	2.31
SKAARRLFGPVDS [C4A]	1.15
SKACRLLFGPVDS [R6L]	1.1
SKACRRLFGPWDS [V11W]	4.1

Block 3
Target: Hepatocyte nuclear factor 3-alpha (Foxa1, Mus musculus, UniProt P35582, residues 1-468, full length assumed)
Method: EMSA with sequencing
Form: double-stranded DNA, one strand shown
Matrix: in vitro
Tested at: 10 and 20 nM
Setting: whole designed probe, mean of two concentrations, ends assumed
Relative to: negative control set to 0
Direction: higher = stronger binding
All sequences stand within: GTGAGCGGTGCCCATTGATGGGGAAC … TTTCACTGGGATCGTGGGGAC
Target sequence (chain): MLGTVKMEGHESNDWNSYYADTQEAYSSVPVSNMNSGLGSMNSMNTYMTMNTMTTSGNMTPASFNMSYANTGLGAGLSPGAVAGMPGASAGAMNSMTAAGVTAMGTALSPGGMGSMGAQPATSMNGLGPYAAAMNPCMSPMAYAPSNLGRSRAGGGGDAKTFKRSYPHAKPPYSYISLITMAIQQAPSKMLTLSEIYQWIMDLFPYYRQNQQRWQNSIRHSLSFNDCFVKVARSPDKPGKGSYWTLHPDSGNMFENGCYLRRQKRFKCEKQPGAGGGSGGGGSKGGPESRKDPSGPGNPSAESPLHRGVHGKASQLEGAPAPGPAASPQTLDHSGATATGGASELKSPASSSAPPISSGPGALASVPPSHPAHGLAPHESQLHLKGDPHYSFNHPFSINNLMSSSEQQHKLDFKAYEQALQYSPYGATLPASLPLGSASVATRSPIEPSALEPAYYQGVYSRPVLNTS
Oligonucleotide	normalised bound fraction
ATCTTCCCCCTCTTCCTTGCCCCACCAGCTCACCTTCCCGGGTTATTTGCAGATAGGAAAATAAATAAAGCCGGCATTCGTTAACGCAGTTCACGCGCATACTGCTGTTTGCTCTGCATGAATCATGGTCCTTACGCGACGCCAGGCTCCGGGAGAGCAAAGCACCGTGTCAGGCGCATGATCCGGGCTCGCC	0.354 ratio
TCTCCCCTGCAGGAGTTTGGACTAATCAGGTCACTACACCCTGACACAGCAGTCTCCAGTCTCTACCACTCATTGTTTGCAACATGACGTAATGTCAACAGACCACAGAGAAGTTAGCAACAGGGAAGGGAAAACACTTTAATCTCAAGGTCATCCCCAGGGTTCAGCAGGACATATATCCTATATCGAATCA	0.364 ratio
AAATGGAAAGTACTTTGAAAAGTTTGAAGCTGTATACAATAGCCATCTGTTGTCCTCAAAGTGAGTGGTCCTTGGGGGCAGGCTTGCTACAAAGTAATCTACCTGGGGCAAAAGGTTTTAGTTGTTTAGACAAGAACACACTGCCTTTCATCAGTGTGGGAAAGAACTGGATCGGGAATTAGACCACGTGGGC	0.0589 ratio
TCCATAAGGCACAAACTTTCAGAGACAGCAGAGCACACAAGCTTCTAGGACAAGAGCCAGGAAGAAACCACCGGAAGGAACCATCTCACTGTGTGTAAACATGACTTCCAAGCTGGCCGTGGCTCTCTTGGCAGCCTTCCTGATTTCTGCAGCTCTGTGTGAAGGTAAGCACATCTTTCTGACCTACAGCGTT	0.239 ratio
ATAACTGTTCTTTCCATCCACATATAATTTTTCTAATCTGTAATGAGTTGGATTTTCATTTATTCTGTACAGAGAGTACTAAGTATTTACTGCATGTTTACTTTTTAAATATACCATCTATATGCTACTTGGCCCCTCTACACTGCTTTCTTGGAAATAAAATACTGTGCCTATAACTGCTCCAAGTACATAA	0.348 ratio

Mixed results
Structure (SMILES)	organism	observed	tested at	time	setting	measurement	value
CN(C)CCC[C@@]1(c2ccc(F)cc2)OCc2cc(C#N)ccc21	Sarcocystis neurona	parasite growth	10 µM	96 h	first screen	inhibition	20.2%

Excerpt of the above (block 2):
Variant	normalised enrichment score
SKTCRRLFGPVDS [A3T]	2.31
SKAARRLFGPVDS [C4A]	1.15
SKACRRLSGPVDS [F8S]	0.254
